Published values gathered from unrelated publications.
Each numbered part is a random draw from the data of one study; scales do not carry over between parts. Changes are numbered by the printed parent chain.

Set 1 — method: aptamer microarray, sandwich; form: DNA with 2'F-ANA; sample: in vitro; concentration: 200 nM; with: Cy3 exosite-II aptamer, 400 nM; direction: higher = stronger binding; oligonucleotide: GGTTGGTGTGGTTGG
Target: Prothrombin, mature alpha-thrombin (F2, Homo sapiens, UniProt P00734)
Notes: whole 15-mer aptamer, many near background
| Modification | mean fluorescence intensity |
| --- | --- |
| 2'F-ANA at 1 2 4 7 10 11 12 13 | 58.3 a.u. |
| 2'F-ANA at 1 2 4 5 6 8 12 14 15 | 48.8 a.u. |
| 2'F-ANA at 2 3 4 8 10 13 14 15 | 167 a.u. |
| 2'F-ANA at 1 2 6 10 11 12 15 | 82.4 a.u. |
| 2'F-ANA at 2 5 6 8 14 | 58.3 a.u. |
| 2'F-ANA at 3 4 5 6 9 10 14 | 49.8 a.u. |
| 2'F-ANA at 1 3 7 8 10 11 12 13 | 112 a.u. |
| 2'F-ANA at 3 4 10 12 14 15 | 207 a.u. |

Set 2 — target: CCNA1, cyclin fold, Cln2 fusion (human); method: yeast growth competition, sequencing; sample: yeast; notes: weak parent motif; baseline: not given; direction: higher = stronger binding
Parent: viral docking peptide; KGVKRKLFAEDSS; partner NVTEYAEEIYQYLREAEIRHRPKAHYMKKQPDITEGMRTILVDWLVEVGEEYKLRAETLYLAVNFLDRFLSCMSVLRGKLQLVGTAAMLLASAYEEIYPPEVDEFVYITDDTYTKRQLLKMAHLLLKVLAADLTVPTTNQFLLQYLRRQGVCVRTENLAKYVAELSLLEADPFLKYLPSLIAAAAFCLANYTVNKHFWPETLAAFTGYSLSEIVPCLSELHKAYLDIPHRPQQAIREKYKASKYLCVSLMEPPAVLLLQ
| Variant | normalised enrichment score |
| --- | --- |
| F8W | 0.0358 |
| E10D | 1.38 |
| E10S | 0.417 |
| K1A | 0.679 |
| E10F | 0.35 |
| E10P | 0.839 |
| K6Y | 0.0608 |
| V3W | -0.0193 |
| F8C | 0.507 |
| K6S | 0.819 |
| E10Y | 0.215 |
| G2T | 1.16 |
| S12V | 1.68 |

Set 3 — method: two-hybrid; baseline: out of 4 tests; direction: higher = firmer interaction
Partner: ARF11 500-622 (Arabidopsis thaliana, UniProt Q9ZPY6)
B1: ARF8 699-811 (Arabidopsis thaliana, UniProt Q9FGV1); chain NSSNQTKNFVKVYKSGSVGRSLDISRFSSYHELREELGKMFAIEGLLEDPLRSGWQLVFVDKENDILLLGDDPWESFVNNVWYIKILSPEDVHQMGDHGEGSGGLFPQNPTHL
B2: IAA33 (Arabidopsis thaliana, UniProt Q9FKM7); chain MNSFEPQSQDSLQRRFHQDNSTTQQPRDTTTPFIPKPASKNHNNSNSSSGAAGRSFQGFGLNVEDDLVSSVVPPVTVVLEGRSICQRISLDKHGSYQSLASALRQMFVDGADSTDDLDLSNAIPGHLIAYEDMENDLLLAGDLTWKDFVRVAKRIRILPVKGNTRQVKRNE
B3: IAA34 (Arabidopsis thaliana, UniProt Q9C5X0); chain MYCSDPPHPLHLVASDKQQKDHKLILSWKKPTMDSDPLGVFPNSPKYHPYYSQTTEFGGVIDLGLSLRTIQHEIYHSSGQRYCSNEGYRRKWGYVKVTMDGLVVGRKVCVLDHGSYSTLAHQLEDMFGMQSVSGLRLFQMESEFCLVYRDEEGLWRNAGDVPWNEFIESVERLRITRRNDAVLPF
B4: IAA28 (Arabidopsis thaliana, UniProt Q9XFM0); chain MEEEKRLELRLAPPCHQFTSNNNINGSKQKSSTKETSFLSNNRVEVAPVVGWPPVRSSRRNLTAQLKEEMKKKESDEEKELYVKINMEGVPIGRKVNLSAYNNYQQLSHAVDQLFSKKDSWDLNRQYTLVYEDTEGDKVLVGDVPWEMFVSTVKRLHVLKTSHAFSLSPRKHGKE
B5: ARF6 790-935 (Arabidopsis thaliana, UniProt Q9ZTX8); chain SENPQSNTFVKVYKSGSFGRSLDISKFSSYHELRSELARMFGLEGQLEDPVRSGWQLVFVDRENDVLLLGDDPWPEFVSSVWCIKILSPQEVQQMGKRGLELLNSAPSSNNVDKLPSNGNCDDFGNRSDPRNLGNGIASVGGSFNY
B6: IAA32 (Arabidopsis thaliana, UniProt Q8RYC6); chain MDPNTPADFFKGSSKFHTYYSQTKKGGGVIDLGLSLRTIQHETYLPPARMIGLDGYGELIDWSQPSYNSITQLKSEDTGHQRLAQGYYNNEGESRGKYAYVKVNLDGLVVGRKVCLVDQGAYATLALQLNDMFGMQTVSGLRLFQTESEFSLVYRDREGIWRNVGDVPWKEFVESVDRMRIARRNDALLPF
Residues (chain): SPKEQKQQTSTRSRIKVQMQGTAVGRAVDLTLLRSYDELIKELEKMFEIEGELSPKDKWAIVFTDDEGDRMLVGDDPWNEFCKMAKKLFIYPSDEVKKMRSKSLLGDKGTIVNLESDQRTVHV
| Sequence | positive tests |
| --- | --- |
| B1 (ARF8 699-811) | 0 |
| B2 (IAA33) | 1 |
| B3 (IAA34) | 1 |
| B4 (IAA28) | 0 |
| B5 (ARF6 790-935) | 1 |
| B6 (IAA32) | 0 |

Single results of other studies
| Sequence | target | test | test system | setting | quantity | value |
| --- | --- | --- | --- | --- | --- | --- |
| ITLFPSYQL | HLA class I histocompatibility antigen, C alpha chain, allele C*04:01 (Homo sapiens, UniProt P10321) | peptide-MHC binding | peptide | concentration not given | binding | inactive |

Excerpt of the above (set 3):
| Sequence | positive tests |
| --- | --- |
| B5 (ARF6 790-935) | 1 |
| B6 (IAA32) | 0 |
